Measured values pooled from the literature.
Numbered parts are unrelated; each lists some results of a single study.

Set 1 — technique: competition protein-binding microarray; molecule type: double-stranded DNA, one strand shown; medium: in vitro; concentration: 2 µM; together with: Pho4 competitor, 0.05 µM; direction: higher = stronger binding
Target: Centromere-binding protein 1, full length, His-tagged (CBF1, Saccharomyces cerevisiae, UniProt P17106, residues 1-351)
Chain of UniProt P17106 (whole entry, looked up): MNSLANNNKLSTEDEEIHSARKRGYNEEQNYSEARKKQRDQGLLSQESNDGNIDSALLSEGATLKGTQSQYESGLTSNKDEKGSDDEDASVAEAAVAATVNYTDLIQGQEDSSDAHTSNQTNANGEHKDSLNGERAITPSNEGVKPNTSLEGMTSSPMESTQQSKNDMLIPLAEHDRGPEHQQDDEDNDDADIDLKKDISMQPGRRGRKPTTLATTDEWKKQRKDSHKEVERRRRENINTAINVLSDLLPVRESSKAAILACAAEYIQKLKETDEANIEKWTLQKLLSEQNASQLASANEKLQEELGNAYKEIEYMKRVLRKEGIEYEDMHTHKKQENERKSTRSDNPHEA
Setting: whole 60-bp probe, lowest competitor level
Strand | fluorescence intensity [a.u.]
TTGTCTCATTACGTTCAGGTGACTACATTATCGAGCGTCTTGATTCGCTTGACGCTGCTG | 547
TTCTAGTTATTGTTGCTCGTGCAAAGATGTGCTGTGGTCTTGATTCGCTTGACGCTGCTG | 140
AAGTCCTTTTCCCGTCACGTGGTCGTAGAACACTCTGTCTTGATTCGCTTGACGCTGCTG | 11300

Set 2 — technique: protein binding microarray; molecule type: double-stranded DNA, one strand shown; medium: in vitro; concentration: not given; relative to: not given; direction: higher = stronger binding
Target: Histone acetyltransferase KAT6A, winged helix 1, GST fusion (KAT6A, Homo sapiens, UniProt Q92794, residues 1-85)
Setting: 8-mer, flanks averaged, mean of 2 arrays, mostly near background
Target sequence (chain): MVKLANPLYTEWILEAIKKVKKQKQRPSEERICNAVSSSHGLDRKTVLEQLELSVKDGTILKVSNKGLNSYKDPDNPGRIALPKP
Strand | E-score
GTACGACA | -0.276
CATGACTA | -0.0715
CAAGGCTA | 0.00547
CTTTAAAA | -0.0688
CTTCCACA | -0.288

Set 3 — technique: protein-binding microarray; molecule type: double-stranded DNA, one strand shown; medium: in vitro; concentration: not given; direction: higher = stronger binding
Target: Transcription factor Sp1 (SP1, Homo sapiens, UniProt P08047, residues 1-785, full length assumed)
Chain of UniProt P08047 (whole entry, looked up): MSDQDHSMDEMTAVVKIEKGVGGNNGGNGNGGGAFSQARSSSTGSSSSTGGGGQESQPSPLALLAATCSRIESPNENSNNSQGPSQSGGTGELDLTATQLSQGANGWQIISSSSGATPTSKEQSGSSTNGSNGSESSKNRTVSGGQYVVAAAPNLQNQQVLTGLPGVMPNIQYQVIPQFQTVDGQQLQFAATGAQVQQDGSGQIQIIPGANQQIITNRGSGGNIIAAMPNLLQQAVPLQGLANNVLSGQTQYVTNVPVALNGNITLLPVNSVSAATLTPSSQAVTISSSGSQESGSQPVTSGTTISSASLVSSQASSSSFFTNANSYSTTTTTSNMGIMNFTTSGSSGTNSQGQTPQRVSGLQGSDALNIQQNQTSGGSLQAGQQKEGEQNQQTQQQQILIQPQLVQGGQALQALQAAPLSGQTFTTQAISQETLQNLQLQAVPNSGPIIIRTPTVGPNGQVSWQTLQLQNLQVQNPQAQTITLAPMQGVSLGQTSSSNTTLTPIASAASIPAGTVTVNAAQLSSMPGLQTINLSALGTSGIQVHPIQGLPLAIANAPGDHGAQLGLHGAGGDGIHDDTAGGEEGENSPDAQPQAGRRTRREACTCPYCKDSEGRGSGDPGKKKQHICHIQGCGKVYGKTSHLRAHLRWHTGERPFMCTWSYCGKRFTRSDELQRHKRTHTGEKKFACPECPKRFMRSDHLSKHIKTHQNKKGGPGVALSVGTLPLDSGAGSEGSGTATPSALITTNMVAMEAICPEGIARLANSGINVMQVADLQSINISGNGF
Setting: k-mer, scored over probes, only values ≥0.25
Strand | E-score
AACCCACC | 0.284
CAGGTGGG | 0.258
ACCCTCCC | 0.467

Mixed results
Molecule | target | assay | test system | setting | scale | measurement | value
PhoQ, residues 284 288 289 292 302 303 GNNTDL | PhoP, residues 12 14 15 18 19 SGWQI (Escherichia coli, UniProt P23836) | Sort-seq, refers to: YFP reporter | E. coli | PhoQ-PhoP variant library, together with: 10 µM Mg2+ | relative to: high Mg2+ state, higher = stronger signaling | fold induction | 5.31

Excerpt of the above (set 1):
Strand | fluorescence intensity [a.u.]
AAGTCCTTTTCCCGTCACGTGGTCGTAGAACACTCTGTCTTGATTCGCTTGACGCTGCTG | 11300
